# Results gathered from unrelated publications.
# Compare with care: the assays were run in different laboratories. “And” joins repeats or separate records; there may be more than shown. Numbers after ± are the reported error.
SMILES,assay,system,setting,scale,quantity,result
COc1cc2c(NC3CCN(C(C)C)CC3)cc(N3CCOCC3)nc2cc1OCCCN1CCCC1,"TMT quantitative proteomics, refers to: ALDOA","APP AD model mice, hippocampus",dose not given,,normalised protein abundance,0.0405 and 0.0222 and 0.0649 and 0.296 and 0.0604 and -0.0326 and -0.0162 and 0.042
COC1OC(C)C(OC2OC(C)C(O)C(OC3OC(C)C(OC4OC(C)C(O)C(OC5OC(C)C(OC6OC(C)C(O)C(OC7OC(C)C(OC8OC(C)C(O)C(OC9OC(C)C(OC%10OC(C)C(O)C(OC%11OC(C)C(O)C(OS(=O)(=O)O)C%11OS(=O)(=O)O)C%10OS(=O)(=O)O)C(OS(=O)(=O)O)C9OS(=O)(=O)O)C8OS(=O)(=O)O)C(OS(=O)(=O)O)C7OS(=O)(=O)O)C6OS(=O)(=O)O)C(OS(=O)(=O)O)C5OS(=O)(=O)O)C4OS(=O)(=O)O)C(OS(=O)(=O)O)C3OS(=O)(=O)O)C2OS(=O)(=O)O)C(OS(=O)(=O)O)C1OS(=O)(=O)O (stereo not shown),,human plasma,128 µg/mL,,thrombin time,9.2 s
COc1cnc2cccc(N3CCc4c(cc(Cn5ccnc5)cc4-c4cn(C)nc4C(F)(F)F)C3=O)c2c1,,"BALB/c nude mice, MV4-11 xenograft","intraperitoneal, 100 mg/kg, day 14",,tumour volume,202 mm3 and 207 mm3 and 189 mm3 and 147 mm3
CN1CCC[C@]1(C)/C=C/S(=O)(=O)NC(=O)Nc1c2c(cc3c1CCC3)CCC2,,"human, whole blood ex vivo","50 mg single dose, 12 h, single ascending dose, added: LPS and ATP",,IL-1β inhibition,97.3%
COC1OC(C)C(OC2OC(C)C(O)C(OC3OC(C)C(O)C(OS(=O)(=O)O)C3OS(=O)(=O)O)C2OS(=O)(=O)O)C(OS(=O)(=O)O)C1OS(=O)(=O)O (stereo not shown),,human plasma,128 µg/mL,baseline: control,thrombin time prolongation,1 fold
CC(=O)[O-].O.O.[O-]c1ccc(Br)cc1C=NCCN1CCOCC1.[Zn+2],DPPH radical scavenging,,160 µM,,inhibition,40.2%
COc1ccc(C(=O)CCc2cc(C(CCc3ccc(O)cc3OC)c3ccc(O)cc3)c(O)cc2OC)cc1 (racemic),,human blood,"10 µM, added: A23187",,5-HETE level,4820 ± 2400 pg/mL
Cc1ccc(N(O)/N=N/c2ccc(S(=O)(=O)Nc3nccs3)cc2)cc1,carrageenan-induced paw edema,Wistar rat,"oral, 100 mg/kg, 3 h after carrageenan, added: carrageenan 1% subplantar",higher = more edema,paw edema volume,5.52 ± 0.41 a.u.
COc1cc(O)ccc1CCC(c1ccc(O)cc1)c1cc2c(c(C)c1O)OC(c1ccc(O)cc1)CC2 (mixture of isomers),refers to: PGE2,human blood,"0.3 µM, added: Escherichia coli stimulation",,lipid mediator level,952 ± 476 pg/mL blood
COC1OC(C)C(OC2OC(C)C(OS(=O)(=O)O)C(OS(=O)(=O)O)C2O)C(OS(=O)(=O)O)C1O (stereo not shown),,human plasma,128 µg/mL,,thrombin time,9.5 ± 0.3 s
S=C(S)OC1CC2CC1C1CCCC21 (stereo not shown),hot plate,male ICR-CD1 mice,"icv, 75 µg/animal, 15 min",,maximum possible effect,18.4% and 15.1% and 14.6% and 16.7%
COC1OC(C)C(OS(=O)(=O)O)C(OC2OC(C)C(OS(=O)(=O)O)C(OC3OC(C)C(OS(=O)(=O)O)C(OS(=O)(=O)O)C3OS(=O)(=O)O)C2OS(=O)(=O)O)C1OS(=O)(=O)O (stereo not shown),,human plasma,128 µg/mL,,thrombin time,9.8 ± 0.5 s
NC[C@@H](C(=O)Nc1ccc(-c2cn[nH]c2)cc1)c1ccccc1,tonometry,"Macaca cyclopis, ocular normotensive","ocular, 0.03%, 24 h",,IOP,18.3 mmHg
COC1OC(C)C(OC2OC(C)C(OS(=O)(=O)O)C(OC3OC(C)C(OC4OC(C)C(OS(=O)(=O)O)C(OC5OC(C)C(OC6OC(C)C(OS(=O)(=O)O)C(OS(=O)(=O)O)C6OS(=O)(=O)O)C(OS(=O)(=O)O)C5OS(=O)(=O)O)C4OS(=O)(=O)O)C(OS(=O)(=O)O)C3OS(=O)(=O)O)C2OS(=O)(=O)O)C(OS(=O)(=O)O)C1OS(=O)(=O)O (stereo not shown),,human plasma,128 µg/mL,baseline: control,thrombin time prolongation,1 fold
CCCCCc1ccc(S(=O)(=O)N2CC2C(=O)OC)cc1 (stereo not shown),,"mouse, Lewis lung carcinoma","intraperitoneal, 5 mg/kg, 16 doses, day 12",,tumour growth inhibition,71%
COc1c(Cl)cccc1Nc1c(-c2ccncc2C#C[C@@]2(C)CCCN2C(=O)/C=C/CN(C)C)[nH]c2c1C(=O)NCC2,,"female BALB/c nude mouse, sample A PDX","25 mg/kg once daily, 28 days, EGFR ASV",,tumour growth inhibition,123%
O=C(N[C@@H](Cc1coc2ccccc12)B(O)O)[C@@H]1C[C@H]2CC[C@@H]1O2,tumour growth,"MM1.S, mouse, MM1.S multiple myeloma xenograft","oral, 10 mg/kg twice weekly",,T/C,-13%
COC1OC(C)C(OS(=O)(=O)O)C(OC2OC(C)C(OS(=O)(=O)O)C(OS(=O)(=O)O)C2O)C1O (stereo not shown),,human plasma,128 µg/mL,,thrombin time,9.3 ± 0.1 s
O=C(N[C@@H](Cc1ccc(OCCCCC2CCNCC2)cc1)C(=O)O)c1nc2ccccc2o1.O=C(O)C(F)(F)F,"platelet aggregation, inhibitor, impedance aggregometry","human, whole blood, 1:1 saline","50 nM, 6 min, 37 °C, added: ADP 20 µM",higher = more aggregation,aggregation impedance AUC,38.6 a.u. and 31 a.u. and 18.3 a.u. and 41.8 a.u. and 31.8 a.u.
O=C(Nc1ccccc1)c1ccc(Nc2nnc(-c3ccc(O)cc3)c3ccccc23)cc1,formalin-induced pain,mouse,"intracerebroventricular, 0.01 3 µg per animal",,nociceptive behaviour,decreased
COC1OC(C)C(OC2OC(C)C(O)C(OC3OC(C)C(OC4OC(C)C(O)C(OC5OC(C)C(OC6OC(C)C(O)C(OS(=O)(=O)O)C6OS(=O)(=O)O)C(OS(=O)(=O)O)C5OS(=O)(=O)O)C4OS(=O)(=O)O)C(OS(=O)(=O)O)C3OS(=O)(=O)O)C2OS(=O)(=O)O)C(OS(=O)(=O)O)C1OS(=O)(=O)O (stereo not shown),,human plasma,128 µg/mL,baseline: control,thrombin time prolongation,1 fold
COC1CN([C@H]2CC[C@H]([C@@]3(C)Oc4c(Cl)cc(C(=O)NCc5c(SC)cc(C)[nH]c5=O)c(C)c4O3)CC2)C1,"RNA-seq, refers to: GCLC","human cancer patients, whole blood","dose not given, 24 h, PRC2 target gene",baseline: pretreatment sample,log2 fold change,1.06

# Repeated from above:
SMILES,assay,system,setting,scale,quantity,result
COc1c(Cl)cccc1Nc1c(-c2ccncc2C#C[C@@]2(C)CCCN2C(=O)/C=C/CN(C)C)[nH]c2c1C(=O)NCC2,,"female BALB/c nude mouse, sample A PDX","25 mg/kg once daily, 28 days, EGFR ASV",,tumour growth inhibition,123%
COc1cc(O)ccc1CCC(c1ccc(O)cc1)c1cc2c(c(C)c1O)OC(c1ccc(O)cc1)CC2 (mixture of isomers),refers to: PGE2,human blood,"0.3 µM, added: Escherichia coli stimulation",,lipid mediator level,952 ± 476 pg/mL blood
COC1CN([C@H]2CC[C@H]([C@@]3(C)Oc4c(Cl)cc(C(=O)NCc5c(SC)cc(C)[nH]c5=O)c(C)c4O3)CC2)C1,"RNA-seq, refers to: GCLC","human cancer patients, whole blood","dose not given, 24 h, PRC2 target gene",baseline: pretreatment sample,log2 fold change,1.06
O=C(N[C@@H](Cc1ccc(OCCCCC2CCNCC2)cc1)C(=O)O)c1nc2ccccc2o1.O=C(O)C(F)(F)F,"platelet aggregation, inhibitor, impedance aggregometry","human, whole blood, 1:1 saline","50 nM, 6 min, 37 °C, added: ADP 20 µM",higher = more aggregation,aggregation impedance AUC,38.6 a.u. and 31 a.u. and 18.3 a.u. and 41.8 a.u. and 31.8 a.u.
